Published values pooled from the literature.
Numbers after ± are the reported error.
Medium: plasma
Route: oral

SMILES	system	setting	AUC
CC(C)=CCC[C@](C)(O[C@@H]1O[C@H](CO)[C@@H](O)[C@H](O)[C@H]1O)[C@H]1CC[C@]2(C)[C@@H]1[C@H](O)C[C@@H]1[C@@]3(C)CC[C@H](O)C(C)(C)[C@@H]3CC[C@]12C	Sprague-Dawley rat	100 mg/kg of parent ginsenoside, 0 to 48 h, control group, no prebiotic	592 ± 257 ng·h/mL
N#C[C@]1(CO)O[C@@H](n2cnc3c(=O)[nH]c(N)nc32)C[C@@H]1O	male Sprague-Dawley rat	1 mg/kg, together with: entecavir 1 mg/kg	143 ± 47.7 ng·h/mL
COc1cccc(-c2n[nH]c(SCc3ccccn3)n2)c1OC	Sprague-Dawley rat, both sexes	100 mg/kg	229000 ng·h/mL
C=C1[C@H](CO)[C@@H](O)C[C@@H]1n1cnc2c(=O)[nH]c(N)nc21	male Sprague-Dawley rat	1 mg/kg, together with: CdG 1 mg/kg	140 ± 21.7 ng·h/mL
CCCSc1nc(N[C@@H]2C[C@H]2c2ccc(F)c(F)c2)c2nnn([C@@H]3C[C@H](OCCO)[C@@H](O)[C@H]3O)c2n1	female Wistar Han rats	20 mg/kg/day, week 52, carcinogenicity study	31.3 µM·h
Fc1ccc(Nc2n[nH]c3cccnc23)cc1Cl	Sprague-Dawley rat, male	15 mg/kg, 1 times daily, day 1	1150 µM·h
CC(C)=CCC[C@](C)(O[C@@H]1O[C@H](CO)[C@@H](O)[C@H](O)[C@H]1O)[C@H]1CC[C@]2(C)[C@@H]1[C@H](O)C[C@@H]1[C@@]3(C)CC[C@H](O[C@@H]4O[C@H](CO)[C@@H](O)[C@H](O)[C@H]4O[C@@H]4O[C@H](CO)[C@@H](O)[C@H](O)[C@H]4O)C(C)(C)[C@@H]3CC[C@]12C	Sprague-Dawley rat	2000 mg/kg ginseng extract, control diet 2 weeks before dosing	11400 ± 4470 ng·h/mL
CC(C)=CCC[C@](C)(O[C@@H]1O[C@H](CO)[C@@H](O)[C@H](O)[C@H]1O)[C@H]1CC[C@]2(C)[C@@H]1[C@H](O)C[C@@H]1[C@@]3(C)CC[C@H](O[C@@H]4O[C@H](CO)[C@@H](O)[C@H](O)[C@H]4O)C(C)(C)[C@@H]3CC[C@]12C	Sprague-Dawley rat	100 mg/kg of parent ginsenoside, 0 to 48 h, control group, no prebiotic	103 ± 28.5 ng·h/mL
CC#C[C@]1(O)CC[C@H]2[C@@H]3CCC4=CC(=O)CCC4=C3[C@@H](c3ccc(N(C)C)cc3)C[C@@]21C	female Wistar rat	3 x 50 mg/kg	40700 ± 3350 ng·h/mL

Excerpt of the above:
SMILES	system	setting	AUC
COc1cccc(-c2n[nH]c(SCc3ccccn3)n2)c1OC	Sprague-Dawley rat, both sexes	100 mg/kg	229000 ng·h/mL
